Published values gathered from unrelated publications.
Protocols differ between the studies behind these lines. Several values in a cell are separate wells, animals, samples, runs or records.
Organism: Staphylococcus epidermidis

| SMILES | assay | test system | conditions | MIC |
| --- | --- | --- | --- | --- |
| CC[C@H](C)[C@H](NC(=O)[C@@H](Cc1ccccc1)NC)C(=O)OC[C@H](N)C(=O)N[C@H](CCC(N)=O)C(=O)N[C@@H](C(=O)N[C@H](C(=O)OC[C@H](N)C(=O)N[C@H]1C(=O)N[C@@H](C)C(=O)N[C@@H](C2CCCCC2)C(=O)N[C@@H]([C@@H](C)CC)C(=O)O[C@H]1C)[C@@H](C)CC)[C@@H](C)CC | broth microdilution | ATCC 14990, Mueller-Hinton broth | 16 h, 37 °C | 0.5 µg/mL |
| CC(C)C[C@H](NC(=O)[C@H](CCCCN)NC(=O)[C@H](C)NC(=O)[C@H](CC(C)C)NC(=O)[C@H](CCCCN)NC(=O)[C@H](CCCCN)NC(=O)[C@H](C)NC(=O)[C@H](CC(C)C)NC(=O)[C@H](CCCCN)NC(=O)[C@H](C)NC(=O)[C@H](CC(C)C)NC(=O)[C@H](CCCCN)NC(=O)[C@H](Cc1c[nH]cn1)NC(=O)CNC(=O)CN)C(=O)N[C@@H](C)C(=O)N[C@@H](CCCCN)C(N)=O | – | ATCC 12228 | 18 to 20 h | 1 µM |
| CC[C@H](C)[C@H](NC(=O)[C@@H](Cc1ccccc1)NC)C(=O)N[C@@H](CO)C(=O)N[C@H](CCC(N)=O)C(=O)N[C@@H](C(=O)N[C@H](C(=O)N[C@@H](CO)C(=O)N[C@H]1C(=O)N[C@@H](C)C(=O)N[C@@H](C2CCCCC2)C(=O)N[C@@H]([C@@H](C)CC)C(=O)O[C@H]1C)[C@@H](C)CC)[C@@H](C)CC | broth microdilution | ATCC 14990, Mueller-Hinton broth | 16 h, 37 °C | 0.5 µg/mL |
| CC(C)C[C@H](NC(=O)[C@H](CCCCN)NC(=O)[C@H](C)NC(=O)[C@H](CC(C)C)NC(=O)[C@H](CCCCN)NC(=O)[C@H](CCCCN)NC(=O)[C@H](C)NC(=O)[C@H](CC(C)C)NC(=O)[C@H](CCCCN)NC(=O)[C@H](C)NC(=O)[C@H](CC(C)C)NC(=O)[C@H](CCCCN)NC(=O)[C@H](Cc1c[nH]cn1)NC(=O)[C@H](C)NC(=O)[C@@H](N)CC(=O)O)C(=O)N[C@@H](C)C(=O)N[C@@H](CCCCN)C(N)=O | – | ATCC 12228 | 18 to 20 h | 4 µM |
| CCCCCCCC(=O)N(C)[C@H](CO)C(=O)N[C@H](C)C(=O)NCC(=O)N(C)[C@@H]1C(=O)N[C@@H](C)C(=O)N[C@H](C(=O)O)Cc2ccc(O)c(c2)-c2cc1ccc2O | broth microdilution | RP62A wild type | 24 h, 37 °C | > 64 µg/mL |
| CCCCCCCCCCCCCCCc1cc(O)cc(O)c1 | microbial growth, broth dilution | ATCC35984 | drug-resistant strain | > 64 µg/mL |
| CC[C@H](C)[C@H](NC(=O)[C@H](CCCNC(=N)N)NC(=O)[C@H](CCCCN)NC(=O)[C@H](CC(C)C)NC(=O)[C@H](CC(C)C)NC(=O)CNC(=O)[C@H](Cc1c[nH]cn1)NC(=O)[C@@H](NC(=O)[C@@H](N)C(C)C)[C@@H](C)CC)C(=O)N[C@@H](CCCCN)C(=O)N[C@H](C(=O)N[C@@H](CC(C)C)C(=O)N[C@@H](CC(C)C)C(N)=O)[C@@H](C)O | – | ATCC 12228 | 18 to 20 h | 2 µM |
| CC[C@H](C)[C@H](NC(=O)[C@H](NC(=O)[C@@H](CCCNC(=N)N)NC(=O)[C@@H](N)COC(=O)[C@@H](NC(=O)[C@@H](Cc1ccccc1)NC)[C@@H](C)CC)[C@@H](C)CC)C(=O)N[C@@H](CO)C(=O)N[C@H]1C(=O)N[C@@H](C)C(=O)N[C@@H](CC(C)C)C(=O)N[C@@H]([C@@H](C)CC)C(=O)O[C@H]1C | broth microdilution | ATCC 14990, Mueller-Hinton broth | 16 h, 37 °C | 0.0312 to 0.0625 µg/mL |
| CC(C)C[C@H](NC(=O)[C@H](CC(N)=O)NC(=O)[C@H](CCCNC(=N)N)NC(=O)[C@@H](CC(C)C)NC(=O)[C@H](Cc1ccc(-c2ccccc2)cc1)NC(=O)[C@H](CC(=O)O)NC(=O)[C@H](CCCCN)NC(=O)[C@@H](CC(C)C)NC(=O)[C@H](CCCNC(=N)N)NC(=O)[C@H](CCC(N)=O)NC(=O)[C@@H](NC(=O)[C@@H](CC(C)C)NC(=O)[C@H](CCCNC(=N)N)NC(=O)[C@H](CCCCN)NC(=O)[C@H](Cc1ccc(-c2ccccc2)cc1)NC(=O)CN)C(C)C)C(=O)N[C@H](C(N)=O)C(C)C | broth microdilution | 1457, Mueller-Hinton broth | overnight, 37 °C | 8 µM |
| CC[C@H](C)[C@@H]1NC(=O)CNC(=O)[C@H](CCCCN)NC(=O)[C@H](C)NC(=O)[C@H](CCC(=O)O)NC(=O)[C@H](Cc2ccccc2)NC(=O)[C@H](CO)NC(=O)[C@H](CC(C)C)NC(=O)[C@H](C(C)C)NC(=O)[C@H](CC(=O)O)NC(=O)[C@@H](NC(=O)[C@@H](NC(=O)[C@@H](N)C(C)C)[C@@H](C)O)CSSC[C@@H]2NC(=O)[C@H](CO)NC(=O)CNC(=O)CNC(=O)[C@H](CCCCN)NC(=O)[C@H](CCCCN)NC(=O)[C@H](CCCNC(=N)N)NC(=O)[C@H](CC(C)C)NC(=O)[C@H](C)NC(=O)[C@H]([C@@H](C)CC)NC(=O)[C@H](CSSC[C@@H](C(=O)N[C@@H](CCCNC(=N)N)C(=O)N[C@@H](CC(N)=O)C(=O)O)NC(=O)[C@H](C(C)C)NC(=O)[C@H](C)NC(=O)[C@H](C(C)C)NC(=O)CNC(=O)[C@H](CC(N)=O)NC(=O)[C@H](CCC(N)=O)NC2=O)NC(=O)[C@H](Cc2c[nH]cn2)NC(=O)[C@H](CC(C)C)NC(=O)[C@H](C)NC(=O)[C@H](C)NC(=O)[C@H](C)NC(=O)[C@H](CO)NC(=O)[C@H](Cc2c[nH]cn2)NC(=O)[C@H](CC(N)=O)NC(=O)[C@H](C(C)C)NC(=O)[C@H](C)NC1=O | broth microdilution | KCTC 1917 | 16 h, 37 °C | > 100 µM |
| CCCCCCCCCCCCCc1cc(O)cc(O)c1 | microbial growth, broth dilution | ATCC35984 | drug-resistant strain | > 64 µg/mL |
| CC[C@H](C)[C@H](NC(=O)CNC(=O)[C@H](CCCCN)NC(=O)[C@H](C)NC(=O)[C@H](CCC(=O)O)NC(=O)[C@H](Cc1ccccc1)NC(=O)[C@H](CO)NC(=O)[C@H](CC(C)C)NC(=O)[C@@H](NC(=O)[C@H](CC(=O)O)NC(=O)[C@H](C)NC(=O)[C@@H](NC(=O)[C@@H](N)C(C)C)[C@@H](C)O)C(C)C)C(=O)N[C@@H](C)C(=O)N[C@H](C(=O)N[C@@H](CC(N)=O)C(=O)N[C@@H](Cc1c[nH]cn1)C(=O)N[C@@H](CO)C(=O)N[C@@H](C)C(=O)N[C@H]1CSSC[C@@H]2NC(=O)[C@H](C(C)C)NC(=O)CNC(=O)[C@H](CC(N)=O)NC(=O)[C@H](CCC(N)=O)NC(=O)[C@H](C)NC(=O)[C@H](CO)NC(=O)CNC(=O)CNC(=O)[C@H](CCCCN)NC(=O)[C@H](CCCCN)NC(=O)[C@H](CCCNC(=N)N)NC(=O)[C@H](CC(C)C)NC(=O)[C@H](C)NC(=O)[C@H]([C@@H](C)CC)NC(=O)[C@H](CSSC[C@@H](C(=O)N[C@@H](CCCNC(=N)N)C(=O)N[C@@H](CC(N)=O)C(=O)O)NC(=O)[C@H](C(C)C)NC2=O)NC(=O)[C@H](Cc2c[nH]cn2)NC(=O)[C@H](CC(C)C)NC(=O)[C@H](C)NC1=O)C(C)C | broth microdilution | KCTC 1917 | 16 h, 37 °C | > 100 µM |
| CN1CCNC1=S.CN1CCNC1=S.O=[N+]([O-])[O-].[Ag+].c1ccc(P(c2ccccc2)c2ccccc2)cc1 | agar dilution | MTCC 435, Mueller Hinton agar | 24 h, 37 °C | 5 to 10 µg/mL and 7 µg/mL |
| CC[C@H](C)[C@H](NC(=O)[C@@H](N)C(C)C)C(=O)N[C@@H](Cc1c[nH]cn1)C(=O)N[C@@H](CCCCN)C(=O)N[C@@H](CC(C)C)C(=O)N[C@@H](C)C(=O)N[C@@H](CCCCN)C(=O)N[C@@H](CC(C)C)C(=O)N[C@@H](C)C(=O)N[C@@H](CCCCN)C(=O)N[C@@H](CCCCN)C(=O)N[C@@H](CC(C)C)C(=O)N[C@@H](C)C(=O)N[C@@H](CCCCN)C(=O)N[C@@H](CC(C)C)C(=O)N[C@@H](C)C(=O)N[C@@H](CCCCN)C(N)=O | – | ATCC 12228 | 18 to 20 h | 0.25 µM |
| CC(C)CCCCCCCCCCCCc1cc(O)cc(O)c1 | microbial growth, broth dilution | ATCC35984 | drug-resistant strain | > 64 µg/mL |
| CCCCN1CCNC1=[S+][Ag-3]([O][N+](=O)[O-])([P+](c1ccccc1)(c1ccccc1)c1ccccc1)[P+](c1ccccc1)(c1ccccc1)c1ccccc1 | agar dilution | MTCC 435, Mueller Hinton agar | 24 h, 37 °C | 1000 µg/mL |
